Published values gathered from unrelated publications.
“And” joins repeats or separate records; there may be more than shown. Numbers after ± are the reported error.
Chain of UniProt P09668 (whole entry, looked up): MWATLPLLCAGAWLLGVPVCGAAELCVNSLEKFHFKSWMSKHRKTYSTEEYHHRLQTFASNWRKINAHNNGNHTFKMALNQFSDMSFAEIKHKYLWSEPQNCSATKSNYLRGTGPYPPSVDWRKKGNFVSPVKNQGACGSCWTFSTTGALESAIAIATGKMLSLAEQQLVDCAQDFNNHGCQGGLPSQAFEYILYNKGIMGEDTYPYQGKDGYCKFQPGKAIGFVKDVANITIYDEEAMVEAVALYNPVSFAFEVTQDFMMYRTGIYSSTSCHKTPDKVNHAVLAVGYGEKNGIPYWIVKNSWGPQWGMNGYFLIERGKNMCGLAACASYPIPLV
Chain of UniProt Q92973 (whole entry, looked up): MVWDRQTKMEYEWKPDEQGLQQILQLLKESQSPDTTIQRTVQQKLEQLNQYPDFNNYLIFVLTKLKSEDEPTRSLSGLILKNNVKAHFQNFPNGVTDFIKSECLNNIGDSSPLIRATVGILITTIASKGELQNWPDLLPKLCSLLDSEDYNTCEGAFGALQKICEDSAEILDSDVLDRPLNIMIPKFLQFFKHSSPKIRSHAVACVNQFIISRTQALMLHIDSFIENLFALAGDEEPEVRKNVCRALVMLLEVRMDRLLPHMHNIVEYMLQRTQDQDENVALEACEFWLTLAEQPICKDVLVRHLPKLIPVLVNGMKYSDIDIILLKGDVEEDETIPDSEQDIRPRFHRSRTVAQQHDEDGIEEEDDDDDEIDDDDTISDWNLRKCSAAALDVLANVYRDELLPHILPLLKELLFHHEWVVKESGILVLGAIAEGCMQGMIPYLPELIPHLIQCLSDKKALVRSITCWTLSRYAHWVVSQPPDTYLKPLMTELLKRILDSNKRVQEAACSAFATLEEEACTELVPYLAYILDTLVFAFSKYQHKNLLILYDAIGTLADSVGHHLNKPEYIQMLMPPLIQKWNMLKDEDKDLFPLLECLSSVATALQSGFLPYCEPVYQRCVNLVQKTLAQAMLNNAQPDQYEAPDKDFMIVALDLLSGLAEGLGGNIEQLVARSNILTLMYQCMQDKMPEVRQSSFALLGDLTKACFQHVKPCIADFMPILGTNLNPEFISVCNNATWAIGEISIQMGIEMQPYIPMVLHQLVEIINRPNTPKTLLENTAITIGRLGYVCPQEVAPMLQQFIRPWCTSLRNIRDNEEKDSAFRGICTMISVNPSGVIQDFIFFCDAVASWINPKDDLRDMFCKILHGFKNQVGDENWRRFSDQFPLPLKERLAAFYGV

| Structure (SMILES) | target or system | assay | test system | setting | scale | measurement | value |
| --- | --- | --- | --- | --- | --- | --- | --- |
| Cn1cncc1C1=CN(c2ncnc3[nH]cnc23)CCS1 | 786-0 |  |  | renal cancer cell line |  | CC50 | 91.2 µM |
| CCN(CC)c1ccc(C=NNC(=O)CSc2nc3ccccc3c(=O)n2Cc2ccc(S(N)(=O)=O)cc2)c(O)c1 | MDA-MB-435 | NCI five-dose screen |  |  |  | CC50 | > 100 µM |
| N.N.[Cl][Pt][Cl] | SK-MEL-28 | cell growth, SRB |  | dark, 1% O2 hypoxia |  | GI50 | 1.88 µM |
| CC(C)=CCc1c(O)cc(O)cc1-c1cc2ccc(O)c(CC=C(C)C)c2o1 | MCF7 | cell growth, MTT |  | 7.25 µg/mL, 48 h |  | cell survival | 78.6 ± 1.2% |
| CCCCCCCCCCCCCC(=O)O[C@@H]1[C@@H](C)[C@@]2(O)[C@@H](C=C(CO)C[C@]3(O)C(=O)C(C)=C[C@@H]23)[C@@H]2C(C)(C)[C@]12OC(C)=O | HEL | flow cytometry |  | concentration not given | baseline: cells | S phase cells | 20.7% and 20.1% and 21.6% |
| Oc1ccc(C2(c3ccc(O)cc3)c3ccccc3-c3ccccc32)cc1 | HepG2 spheroids | MTS |  | 80 µM, 96 h | baseline: solvent control | viability | ~35% |
| O=C1CCP(=S)(c2ccccc2)CC1 | HaCaT | annexin V/PI flow cytometry |  | IC50, 72 h |  | necrotic cells | 0.1% |
| Cc1ccc2cc(N3CCC4(O)C(=O)c5cc(C)c(C)cc5N=C34)ccc2n1 (stereo not drawn) | COS-7 | cytokinesis |  | 24 h |  | EC50 | 0.68 µM |
| CC(C)N1CCC(NC2CCN(c3cccc(-c4cc5cc(F)ccc5[nH]4)c3)CC2)CC1 | SK-MEL-28 |  |  |  |  | GI50 | 1.75 µM |
| N.N.[Cl][Pt][Cl] | SiHa and Ca-Ski | flow cytometry |  | concentration not given, 48 h, compound alone | baseline: DMSO | γ-H2AX increase | ~6 fold |
| COc1ccc2c(c1)[nH]c1c(C)nccc12 | DU-145 | bisulfite pyrosequencing, item: RASSF1A promoter CpG site 8 |  | concentration not given | baseline: vehicle | methylation reduction | 3.83% |
| Nc1ncnc2c1ncn2[C@@H]1O[C@@H]2COP(=O)(O)O[C@H]3[C@@H](O)[C@H](n4cnc5c(=O)[nH]cnc54)O[C@@H]3COP(=O)(O)O[C@H]2[C@H]1O | HFF-1 | RNA sequencing, item: Reactome MHC class I presentation |  | upregulated pathways | baseline: mock | fold enrichment | 3.37 |
| CC(C)[C@H](N)C(=O)N1CCC[C@H]1B(O)O | Ker-CT keratinocytes, ASC knockout | inducer, ELISA |  | concentration not given |  | IL-1β release | 1.52 pg/mL and 0 pg/mL |
| Cc1cccc(-c2cccc(C)n2)n1.Cc1cccc(-c2cccc(C)n2)n1.F[P-](F)(F)(F)(F)F.F[P-](F)(F)(F)(F)F.[Ru+2].c1ccc2cc(-c3nc4c5cccnc5c5ncccc5c4[nH]3)ccc2c1 | SK-MEL-28 | cell viability |  | normoxia, with: blue light 453 nm, 100 J/cm2 |  | EC50 | 33.3 ± 1.3 µM |
| O=C(Nc1ccc2[nH]nc(-c3ccncc3)c2c1)[C@@H]1CCN(CC(=O)N2CCN(c3ccc(-c4ncccn4)cc3)CC2)C1 | HCT116 | IncuCyte |  | concentration not given, 44 (unit not given) |  | PI-positive cells | 24.1 count and 20.5 count and 25.2 count |
| COc1cc(CCC[P+](c2ccccc2)(c2ccccc2)c2ccccc2)c(OC)c2c1OCO2.[I-] | BT-549 | SRB |  |  |  | TGI | -5.07 log M |
| Oc1cc(O)cc(-c2cc3ccc(O)cc3o2)c1 | MCF7 | cell growth, MTT |  | 1.8 µg/mL, 48 h |  | cell survival | 86.04 ± 0.41% |
| COc1c(CCC[P+](c2ccccc2)(c2ccccc2)c2ccccc2)cc2c(c1OC)OCO2.[I-] | Hs-578T | SRB |  |  |  | GI50 | -5.76 log M |

| Structure (SMILES) | target or system | assay | test system | setting | scale | measurement | value |
| --- | --- | --- | --- | --- | --- | --- | --- |
| COc1cc(Nc2ncc(F)c(Nc3ccc4c(n3)NC(=O)C(C)(C)O4)n2)cc(OC)c1OC | Pro-cathepsin H (Homo sapiens, UniProt P09668) |  |  |  |  | IC50 | > 10 µM |
| COc1cnc(OC)n2nc(NS(=O)(=O)c3c(OCC(F)F)cccc3C(F)(F)F)nc12 | HEK293T | cytotoxicity, CCK-8 |  | 12.5 µM, 72 h |  | inhibition | 0.39 ± 0.19% |
| C[C@H]1[C@H](C)CC[C@]2(C(=O)O)CC[C@]3(C)C(=CC[C@@H]4[C@@]5(C)CC[C@H](O)C(C)(C)[C@@H]5CC[C@]43C)[C@H]12 | 3T3 | cell growth, MTT |  | 25 µg/mL, 48 h |  | cell survival | 57.6 ± 0.84% |
| C[C@]12CC[C@H](O)C[C@H]1CC[C@@H]1[C@@H]2CC[C@]2(C)[C@@H](c3ccc(=O)oc3)CC[C@]12O | MCF7 | RT-qPCR, item: PGR |  | 20 nM, 48 h, without estradiol, unit not given | baseline: untreated | mRNA level | 0.619 and 0.768 and 0.61 |
| O=C1CCP(c2ccccc2)CC1 | PC-3 | MTT |  | 72 h | baseline: IC50 HaCaT over IC50 PC-3 | selectivity index | 0.8 |
| N.N.[Cl][Pt][Cl] | SAS | annexin V/PI staining |  | 50 µM, 24 h, mean |  | apoptotic cells | 42.5% |
| CC[C@H](C)[C@@H]1NC(=O)[C@@H]2CCCN2C(=O)[C@H](CC(C)C)NC(=O)[C@H](CC(C)C)NC(=O)CNC(=O)[C@@H](NC(=O)[C@@H](NC(=O)[C@H](CC(=O)O)NC(=O)CNC(=O)[C@@H](NC(=O)[C@H](C)NC(=O)CNC(=O)[C@H](CCCCN)NC(=O)[C@H](CC(C)C)NC(=O)[C@H](CC(C)C)NC(=O)[C@H](CCCCN)NC(=O)CNC(=O)[C@@H](NC(=O)[C@@H](N)CC(C)C)C(C)C)C(C)C)C(C)C)CSSC[C@@H](C(=O)O)NC1=O |  | RNA-seq, item: Ms4a8a mRNA | mouse traumatic brain injury, frontal cortex and hippocampus | dose not given | baseline: TBI plus compound vs TBI | log2 fold change | -2.77 |
| COc1c(C)c2c(c(O)c1C/C=C(\C)CCC(=O)O)C(=O)OC2 | SU-DHL10 | cell proliferation | blood cancer |  |  | IC50 | 3.98 µM |
| CC(C)C[C@H](NC(=O)[C@H](CCc1ccccc1)NC(=O)CN1CCOCC1)C(=O)N[C@@H](Cc1ccccc1)C(=O)N[C@@H](CC(C)C)C(=O)[C@@]1(C)CO1 | patient normal conditionally reprogrammed cells | RNA-seq, item: IL36B mRNA | human | concentration not given | baseline: DMSO | fold change | -3890 |
| C/C=C(/C)C(=O)O[C@H]1C(C)=C2[C@H]([C@@H]1OC(=O)CCCCCCC)[C@@](C)(OC(C)=O)C[C@H](OC(=O)CCC)[C@@]1(O)[C@H]2OC(=O)[C@@]1(C)O | HEK-293T | RNA-seq GSEA, item: Hallmark unfolded protein response |  | 500 nM, 6 h | direction not given | normalized enrichment score | 2.9 |
| CN1CCN(C2(CNC3CCN(c4cccc(-c5cc6cc(F)ccc6[nH]5)c4)CC3)CCC2)CC1 | UACC-62 |  |  |  |  | GI50 | 2.11 µM |
| C[C@H]1CN(c2n[nH]c3nc(N[C@H]4CC[C@H](NS(=O)(=O)CCC(F)(F)F)CC4)ncc23)CCO1 | Transportin-1 (TNPO1, Homo sapiens, UniProt Q92973) | inhibitor, Kinobeads competition profiling |  | 20 µM | baseline: vehicle | relative abundance | 1.21 |
| CN1CCN(S(=O)(=O)c2cc([N+](=O)[O-])ccc2N(CCOS(C)(=O)=O)CCOS(C)(=O)=O)CC1 | sample B B-ALL PDX cells | cell viability | ex vivo | 48 h, with: AKR1C3 inhibitor 1 µM, 1 h pretreatment |  | IC50 | 15.4 µM |
| Nc1ncc(-c2nc(N3CCOCC3)nc(N3CCOCC3)n2)c(C(F)F)n1 | BT-549 |  |  | 72 h |  | GI50 | 0.16 µM |
| Oc1ccc(C(c2ccc(O)cc2)(C(F)(F)F)C(F)(F)F)cc1 | HepG2 spheroids | Hoechst flow cytometry |  | 10 µM, 24 h |  | G1 phase cells | 70.7 ± 5.6% |
| O=C1N(Cc2ccccc2Cl)c2ccccc2C12NN=C(c1ccccc1)S2 (stereo not drawn) | MDA-MB-468 | gene expression array, item: HMGB1 mRNA |  | 10 µM, 12 h | baseline: untreated, down | fold change | 1.51 |
| CC(=O)OCOC(=O)CN(CC(=O)OCOC(C)=O)c1ccccc1OCCOc1ccccc1N(CC(=O)OCOC(C)=O)CC(=O)OCOC(C)=O | N2a | fluorescence signal increase, inhibitor, live-cell imaging |  | 30 µM, activation phase, with: BzATP 300 µM |  | inhibition | 37% |
| O=S(=O)(c1ccc(O)cc1)c1ccc(O)cc1 | HepG2 spheroids | Hoechst flow cytometry |  | 10 µM, 96 h |  | G1 phase cells | 72.3 ± 3.48% |

Some of these lines once more:
| Structure (SMILES) | target or system | assay | test system | setting | scale | measurement | value |
| --- | --- | --- | --- | --- | --- | --- | --- |
| CC(C)=CCc1c(O)cc(O)cc1-c1cc2ccc(O)c(CC=C(C)C)c2o1 | MCF7 | cell growth, MTT |  | 7.25 µg/mL, 48 h |  | cell survival | 78.6 ± 1.2% |
| CCCCCCCCCCCCCC(=O)O[C@@H]1[C@@H](C)[C@@]2(O)[C@@H](C=C(CO)C[C@]3(O)C(=O)C(C)=C[C@@H]23)[C@@H]2C(C)(C)[C@]12OC(C)=O | HEL | flow cytometry |  | concentration not given | baseline: cells | S phase cells | 20.7% and 20.1% and 21.6% |
| Oc1ccc(C2(c3ccc(O)cc3)c3ccccc3-c3ccccc32)cc1 | HepG2 spheroids | MTS |  | 80 µM, 96 h | baseline: solvent control | viability | ~35% |
| O=C1CCP(=S)(c2ccccc2)CC1 | HaCaT | annexin V/PI flow cytometry |  | IC50, 72 h |  | necrotic cells | 0.1% |
| Cc1ccc2cc(N3CCC4(O)C(=O)c5cc(C)c(C)cc5N=C34)ccc2n1 (stereo not drawn) | COS-7 | cytokinesis |  | 24 h |  | EC50 | 0.68 µM |
